Measured values gathered from unrelated publications.
Numbered parts are unrelated; each lists some results of a single study. “And” joins repeats or separate records; there may be more than shown.
Chain of UniProt P42336 (whole entry, unmodified, looked up): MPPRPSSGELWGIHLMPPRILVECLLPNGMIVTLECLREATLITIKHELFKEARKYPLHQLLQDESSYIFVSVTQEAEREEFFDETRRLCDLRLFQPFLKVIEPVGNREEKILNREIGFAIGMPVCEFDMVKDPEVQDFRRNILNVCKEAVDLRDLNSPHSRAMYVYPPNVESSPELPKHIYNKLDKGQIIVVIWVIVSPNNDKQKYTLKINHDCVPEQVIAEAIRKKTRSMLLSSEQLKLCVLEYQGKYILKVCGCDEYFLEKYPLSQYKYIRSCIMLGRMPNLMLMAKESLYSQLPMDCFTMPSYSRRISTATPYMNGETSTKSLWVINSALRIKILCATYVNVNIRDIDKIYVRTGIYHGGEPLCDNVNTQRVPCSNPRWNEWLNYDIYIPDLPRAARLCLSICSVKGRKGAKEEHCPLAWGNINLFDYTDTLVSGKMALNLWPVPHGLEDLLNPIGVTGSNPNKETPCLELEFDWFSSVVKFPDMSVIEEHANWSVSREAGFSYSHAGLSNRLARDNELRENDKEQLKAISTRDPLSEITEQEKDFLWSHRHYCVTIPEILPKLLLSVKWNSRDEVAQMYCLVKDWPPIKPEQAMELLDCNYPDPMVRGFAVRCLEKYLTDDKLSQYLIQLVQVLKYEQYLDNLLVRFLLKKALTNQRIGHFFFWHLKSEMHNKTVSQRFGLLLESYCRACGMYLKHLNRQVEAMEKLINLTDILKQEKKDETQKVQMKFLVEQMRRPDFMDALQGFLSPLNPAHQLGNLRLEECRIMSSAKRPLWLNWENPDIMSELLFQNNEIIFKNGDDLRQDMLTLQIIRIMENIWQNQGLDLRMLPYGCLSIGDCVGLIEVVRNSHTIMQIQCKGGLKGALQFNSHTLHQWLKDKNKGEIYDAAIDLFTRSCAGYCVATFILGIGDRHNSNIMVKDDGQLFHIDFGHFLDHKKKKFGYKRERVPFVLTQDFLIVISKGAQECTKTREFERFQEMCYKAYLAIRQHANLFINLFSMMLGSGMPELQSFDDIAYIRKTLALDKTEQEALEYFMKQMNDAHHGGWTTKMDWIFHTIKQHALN
Chain of UniProt Q15375 (whole entry, looked up): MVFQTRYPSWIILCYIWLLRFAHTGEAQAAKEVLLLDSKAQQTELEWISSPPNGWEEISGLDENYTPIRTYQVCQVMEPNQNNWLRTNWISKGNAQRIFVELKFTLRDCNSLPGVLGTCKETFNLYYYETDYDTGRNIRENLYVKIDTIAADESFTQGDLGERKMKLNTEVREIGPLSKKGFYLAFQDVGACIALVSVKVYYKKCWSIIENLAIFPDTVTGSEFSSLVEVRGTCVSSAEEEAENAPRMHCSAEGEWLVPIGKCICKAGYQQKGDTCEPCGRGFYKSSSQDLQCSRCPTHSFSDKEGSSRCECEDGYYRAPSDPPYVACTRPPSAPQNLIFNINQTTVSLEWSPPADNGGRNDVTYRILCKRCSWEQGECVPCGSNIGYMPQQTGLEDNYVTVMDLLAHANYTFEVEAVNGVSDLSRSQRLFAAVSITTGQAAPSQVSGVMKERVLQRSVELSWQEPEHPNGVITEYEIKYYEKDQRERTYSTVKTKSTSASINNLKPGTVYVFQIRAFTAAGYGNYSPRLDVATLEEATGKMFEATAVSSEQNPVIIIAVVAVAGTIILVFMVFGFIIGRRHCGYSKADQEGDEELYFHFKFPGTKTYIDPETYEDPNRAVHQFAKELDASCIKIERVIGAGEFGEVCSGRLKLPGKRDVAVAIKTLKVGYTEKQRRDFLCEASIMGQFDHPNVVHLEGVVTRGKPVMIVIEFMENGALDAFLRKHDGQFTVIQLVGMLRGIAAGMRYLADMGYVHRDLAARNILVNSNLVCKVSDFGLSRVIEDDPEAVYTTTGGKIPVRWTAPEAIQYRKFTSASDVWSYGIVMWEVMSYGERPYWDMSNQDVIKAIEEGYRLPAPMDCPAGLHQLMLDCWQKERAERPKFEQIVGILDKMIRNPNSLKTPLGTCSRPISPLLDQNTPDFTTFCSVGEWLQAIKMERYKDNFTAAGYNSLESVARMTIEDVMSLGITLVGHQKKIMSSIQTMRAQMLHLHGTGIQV
Chain of UniProt Q9UK32 (whole entry, looked up): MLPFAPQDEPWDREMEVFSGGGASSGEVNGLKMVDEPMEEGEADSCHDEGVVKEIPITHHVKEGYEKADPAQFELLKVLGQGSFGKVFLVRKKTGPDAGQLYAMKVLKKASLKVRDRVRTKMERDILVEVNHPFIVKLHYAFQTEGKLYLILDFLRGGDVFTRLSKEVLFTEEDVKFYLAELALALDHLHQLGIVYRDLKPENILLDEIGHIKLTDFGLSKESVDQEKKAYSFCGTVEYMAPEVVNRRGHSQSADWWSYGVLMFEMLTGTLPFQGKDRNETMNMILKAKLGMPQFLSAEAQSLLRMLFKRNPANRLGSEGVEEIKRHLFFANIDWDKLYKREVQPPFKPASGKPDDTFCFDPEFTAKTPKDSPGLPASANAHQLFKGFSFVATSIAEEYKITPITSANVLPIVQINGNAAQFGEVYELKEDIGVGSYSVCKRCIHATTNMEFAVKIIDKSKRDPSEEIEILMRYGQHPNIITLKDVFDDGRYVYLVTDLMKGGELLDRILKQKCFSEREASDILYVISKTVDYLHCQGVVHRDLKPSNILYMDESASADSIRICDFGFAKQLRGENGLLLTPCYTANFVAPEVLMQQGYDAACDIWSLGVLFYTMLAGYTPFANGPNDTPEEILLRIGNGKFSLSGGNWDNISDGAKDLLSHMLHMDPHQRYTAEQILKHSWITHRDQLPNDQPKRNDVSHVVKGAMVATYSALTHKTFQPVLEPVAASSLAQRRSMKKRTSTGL
Chain of UniProt Q13470 (whole entry, looked up): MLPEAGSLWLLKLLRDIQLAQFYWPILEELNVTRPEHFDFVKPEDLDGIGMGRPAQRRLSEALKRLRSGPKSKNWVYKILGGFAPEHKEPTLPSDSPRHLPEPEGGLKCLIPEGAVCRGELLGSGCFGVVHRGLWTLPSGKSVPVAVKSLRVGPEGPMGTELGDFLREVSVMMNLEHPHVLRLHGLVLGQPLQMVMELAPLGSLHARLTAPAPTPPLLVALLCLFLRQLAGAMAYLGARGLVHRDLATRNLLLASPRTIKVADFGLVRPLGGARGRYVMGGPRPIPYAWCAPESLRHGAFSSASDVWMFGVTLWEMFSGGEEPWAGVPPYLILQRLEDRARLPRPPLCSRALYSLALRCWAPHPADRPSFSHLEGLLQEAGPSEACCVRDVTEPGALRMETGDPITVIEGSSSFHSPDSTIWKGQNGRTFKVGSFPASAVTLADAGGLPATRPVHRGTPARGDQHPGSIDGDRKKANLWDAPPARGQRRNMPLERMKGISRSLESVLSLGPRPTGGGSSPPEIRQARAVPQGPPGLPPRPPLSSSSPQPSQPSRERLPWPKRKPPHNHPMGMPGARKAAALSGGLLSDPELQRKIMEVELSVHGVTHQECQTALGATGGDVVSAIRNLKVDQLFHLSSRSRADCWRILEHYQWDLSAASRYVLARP
Chain of UniProt O75582 (whole entry, looked up): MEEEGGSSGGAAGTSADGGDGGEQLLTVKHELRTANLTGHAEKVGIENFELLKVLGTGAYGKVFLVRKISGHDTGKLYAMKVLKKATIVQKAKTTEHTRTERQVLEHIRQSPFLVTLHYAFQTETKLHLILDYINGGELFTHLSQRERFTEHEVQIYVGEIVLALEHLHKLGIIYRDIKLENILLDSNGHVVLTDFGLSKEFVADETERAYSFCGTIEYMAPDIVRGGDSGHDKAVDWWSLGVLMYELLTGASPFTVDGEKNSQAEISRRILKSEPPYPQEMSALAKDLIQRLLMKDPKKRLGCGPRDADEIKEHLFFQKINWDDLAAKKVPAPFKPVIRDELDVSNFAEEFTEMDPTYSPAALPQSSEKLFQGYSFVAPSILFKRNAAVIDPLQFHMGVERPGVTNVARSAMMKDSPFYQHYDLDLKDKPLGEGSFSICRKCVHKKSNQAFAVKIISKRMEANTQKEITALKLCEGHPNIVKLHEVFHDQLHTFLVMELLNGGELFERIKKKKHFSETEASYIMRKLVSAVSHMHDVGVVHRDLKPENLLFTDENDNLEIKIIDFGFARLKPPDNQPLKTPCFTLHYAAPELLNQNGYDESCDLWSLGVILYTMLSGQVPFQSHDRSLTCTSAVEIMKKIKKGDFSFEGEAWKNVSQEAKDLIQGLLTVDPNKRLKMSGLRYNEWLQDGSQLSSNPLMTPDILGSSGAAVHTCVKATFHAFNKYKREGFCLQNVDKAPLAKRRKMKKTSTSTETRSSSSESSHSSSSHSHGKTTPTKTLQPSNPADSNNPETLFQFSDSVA

Block 1
Target: Serine/threonine-protein kinase Chk2 (CHEK2, Homo sapiens, UniProt O96017)
Chain of UniProt O96017 (whole entry, looked up): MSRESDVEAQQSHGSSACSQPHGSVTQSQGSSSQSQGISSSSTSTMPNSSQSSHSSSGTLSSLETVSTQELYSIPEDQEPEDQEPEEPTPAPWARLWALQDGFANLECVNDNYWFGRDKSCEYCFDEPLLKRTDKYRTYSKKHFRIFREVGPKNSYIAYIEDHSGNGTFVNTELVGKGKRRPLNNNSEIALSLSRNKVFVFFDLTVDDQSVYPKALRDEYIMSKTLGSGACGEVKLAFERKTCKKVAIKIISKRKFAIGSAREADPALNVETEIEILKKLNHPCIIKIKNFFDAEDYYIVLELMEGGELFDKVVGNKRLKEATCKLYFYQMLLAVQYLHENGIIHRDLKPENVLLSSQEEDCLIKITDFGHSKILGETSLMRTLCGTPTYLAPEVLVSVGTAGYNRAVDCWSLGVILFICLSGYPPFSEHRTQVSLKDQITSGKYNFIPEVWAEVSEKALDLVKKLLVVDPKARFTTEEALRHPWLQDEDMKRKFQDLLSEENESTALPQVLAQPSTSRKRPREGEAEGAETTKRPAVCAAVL
Effect on: enzyme activity
Action: inhibitor
Tested at: 0.5 µM
Relative to: control
Structure (SMILES)	remaining activity [%]
Cc1ccc(Nc2nccc(N(C)c3ccc4c(C)n(C)nc4c3)n2)cc1S(N)(=O)=O	95.1
Cn1c2ccccc2c2c3c(c4c5ccccc5n(CCC#N)c4c21)CNC3=O	50.2
OCC(O)CCON=C1C(c2c(O)[nH]c3ccccc23)=Nc2ccccc21 (stereo not shown)	26.9
Cc1nc(-c2ccccc2)c(-c2ccncc2)o1	96.6
CO[C@H]1C[C@@H]2CC[C@@H](C)[C@@](O)(O2)C(=O)C(=O)N2CCCC[C@H]2C(=O)O[C@H]([C@H](C)C[C@@H]2CC[C@@H](O)[C@H](OC)C2)CC(=O)[C@H](C)/C=C(\C)[C@@H](O)[C@@H](OC)C(=O)[C@H](C)C[C@H](C)/C=C/C=C/C=C/1C	99
CC(C)[C@H](CO)Nc1nc(Nc2cc(N)cc(Cl)c2)c2ncn(C(C)C)c2n1	96.3
Nc1[nH]nc2nc3ccccc3nc12	94.5
O=c1c2ccccc2[nH]c(=S)n1CCN1CCC(=C(c2ccc(F)cc2)c2ccc(F)cc2)CC1	106
COc1ccc(OC)c2c(=S)c3ccccc3[nH]c12	117
CN(C)c1ccc(C=C2C(=O)Nc3ccccc32)cc1	91.6
O=C1NC(=O)C(c2cn(CCCO)c3ncccc23)=C1c1cnccn1	97.7
O=C(Nc1cccc(Nc2cc(Nc3cccc(C(F)(F)F)c3)ncn2)c1)C1CC1	99.5
O=C1NC(=O)C(c2cn(CCCn3ccnc3)c3ccccc23)=C1Nc1ccccc1	88.3
COc1ccc(CNC(=O)Nc2ncc([N+](=O)[O-])s2)cc1	99.2
O=S(=O)(c1cccc2cnccc12)N1CCCNCC1	98.9

Block 2
Effect on: AlphaScreen signal
Technique: AlphaScreen counter screen
Medium: His6 peptide without bromodomain
Tested at: 50 µM
Setting: assay interference check
Structure (SMILES)	inhibition [%]
COc1cc(N2CCC(N3CCN(C)CC3)CC2)ccc1Nc1ncnc(Nc2ccccc2S(=O)(=O)C(C)C)n1	50.5
N#C/C(=C(/N)SC1C=CC=CC1)c1cccc(C(O)c2ccncc2)c1 (stereo not shown)	11.1
Nc1nccc(-c2c(-c3ccc(F)cc3)ncn2C2CCCCC2)n1	19.5
Nc1nc(Nc2cccc(Cl)c2)sc1C(=O)c1ccc(F)cc1	46.1
N#CC(=Cc1ccncc1)c1nc2cc(C(F)(F)F)ccc2s1	51.6
CCn1c(-c2nonc2N)nc2cnc(Oc3cccc(NC(=O)c4ccc(OCCN5CCOCC5)cc4)c3)cc21	33.5
COc1cc2c(N3CCN(C(=O)Nc4ccc(OC(C)C)cc4)CC3)ncnc2cc1OCCCN1CCCCC1	35.6
CC[C@@H]1C(=O)N(C)c2cnc(Nc3ccc(C(=O)N[C@H]4CC[C@H](N5CCN(CC6CC6)CC5)CC4)cc3OC)nc2N1C(C)C	33.9
Clc1ccc(Nc2nnc(Cc3ccncc3)c3ccccc23)cc1	19.9

Block 3
Structure (SMILES): C=CC(=O)N1CCC([C@@H]2CCNc3c(C(N)=O)c(-c4ccc(Oc5ccccc5)cc4)nn32)CC1
Tested at: 1 µM
target	assay	inhibition [%]
Ephrin type-A receptor 7 (EPHA7, Homo sapiens, UniProt Q15375)	cell-free assay	15
Non-receptor tyrosine-protein kinase TNK1 (TNK1, Homo sapiens, UniProt Q13470)	enzyme activity, inhibitor	32
Ribosomal protein S6 kinase alpha-6, C-terminal kinase domain (RPS6KA6, Homo sapiens, UniProt Q9UK32)	inhibitor	18
Serine/threonine-protein kinase Nek10 (NEK10, Homo sapiens, UniProt Q6ZWH5)	enzyme activity, inhibitor	0
Phosphatidylinositol 4,5-bisphosphate 3-kinase catalytic subunit alpha isoform (PIK3CA, Homo sapiens, UniProt P42336, C420R)	enzyme activity, inhibitor	8
Atypical kinase COQ8A, mitochondrial (COQ8A, Homo sapiens, UniProt Q8NI60)	enzyme activity, inhibitor	12
Cyclin-dependent kinase 8 (CDK8, Homo sapiens, UniProt P49336)	enzyme activity, inhibitor	4
Ribosomal protein S6 kinase alpha-5, C-terminal kinase domain (RPS6KA5, Homo sapiens, UniProt O75582)	inhibitor	0

Block 4
Cell line: mouse MPNST tumor cells
Technique: high-content immunofluorescence imaging
Refers to: nuclear SOX9
Tested at: 10 µM
Time: 12 h
Setting: mean of 2 replicates
Relative to: DMSO control
Reading: higher = more nuclear SOX9
SMILES	nuclear SOX9 intensity
C[C@H](NCc1ccc(OCc2ccccc2F)cc1)C(N)=O	112 % of DMSO
O=C(NC[C@H](O)CN1CCc2ccccc2C1)c1cc(NC2COC2)ncn1	106 % of DMSO
CCCCC1C(=O)N(c2ccccc2)N(c2ccccc2)C1=O	101 % of DMSO and 92.6 % of DMSO
O=C1c2cccc3c2[C@H](CCC3)CN1[C@@H]1CN2CCC1CC2	121 % of DMSO and 115 % of DMSO
Cc1cc2c(cc1N1C(=O)c3cccc4c(CCCO)ccc(c34)C1=O)n(C)c(=O)n2C	248 % of DMSO and 207 % of DMSO
FCc1ccc(OCCOc2ccc(Cl)cc2Cl)c(Cl)n1	119 % of DMSO
c1ccc(-c2cnn3cc(-c4ccc(OCCN5CCOCC5)cc4)cnc23)cc1	127 % of DMSO
CC(C)(O)c1ccccc1CC[C@@H](SCC1(CC(=O)O)CC1)c1cccc(/C=C/c2ccc3ccc(Cl)cc3n2)c1	90.7 % of DMSO and 102 % of DMSO
